Measurements pooled from the literature.
Every numbered part comes from another study and shows a few of its results, in no order. Positions count from the first letter of the parent shown.

Study 1
Target: CEBPD, bZIP domain (human)
Method: DHFR protein complementation
Medium: yeast
Notes: single substitutions, most at no-binding floor
Baseline: wild-type JUN-FOS pair
Reading: higher = stronger binding
Starting sequence: JUN, bZIP domain (human); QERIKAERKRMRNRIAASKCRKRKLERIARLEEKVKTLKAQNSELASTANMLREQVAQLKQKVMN; partner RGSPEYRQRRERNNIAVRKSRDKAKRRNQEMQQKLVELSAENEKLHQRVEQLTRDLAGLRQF
| Variant | binding fitness [natural log] |
| --- | --- |
| Q41I | -1.12 |
| R30Q | -1.34 |
| L38V | -1.41 |
| T37G | -1.4 |
| Q55V | -1.38 |
| S43T | -1.3 |
| A40S | -1.37 |
| M51R | -1.34 |
| K34E | -1.37 |
| M51N | -1.35 |
| A29S | -1.32 |
| K36C | -1.28 |

Study 2
Target: CCNE1, cyclin fold, Cln2 fusion (human)
Method: yeast growth competition, sequencing
Medium: yeast
Notes: strong parent motif
Baseline: not given
Reading: higher = stronger binding
Starting sequence: RBL2 docking peptide (human); STTRRRLFVENDS
| Variant | normalised enrichment score |
| --- | --- |
| STTRRRKFVENDS [L7K] | -0.782 |
| STTRRILFVENDS [R6I] | 3.41 |
| STTRARAFVENDS [R5A L7A] | -0.128 |
| STTRRRLFMENDS [V9M] | 6 |
| STTRRRLKVENDS [F8K] | 0.251 |
| STTRRYLFVENDS [R6Y] | 0.467 |
| SITRRRLFVENDS [T2I] | 5.12 |
| STTRRRWFVENDS [L7W] | -0.104 |
| STTRRRLFVRNDS [E10R] | 1.65 |
| NTTRRRLFVENDS [S1N] | 5.9 |
| STIRRRLFVENDS [T3I] | 5.02 |
| PTTRRRLFVENDS [S1P] | 5.7 |
| STTRPRLFVENDS [R5P] | 0.253 |
| DTTRRRLFVENDS [S1D] | 4.48 |
| STTTRRLFVENDS [R4T] | 1.33 |
| STTRRSLFVENDS [R6S] | 0.575 |
| STTRRRLFYENDS [V9Y] | 5.29 |
| STTRRRLTVENDS [F8T] | -0.0337 |
| STTRRRLEVENDS [F8E] | 0.86 |
| STPRRRLFVENDS [T3P] | 4.94 |
| STTRRRLFVENAS [D12A] | 4.59 |
| STTRRRLFVENRS [D12R] | 3.69 |
| STTCRRLFVENDS [R4C] | 6 |
| RTTRRRLFVENDS [S1R] | 6.61 |
| STTRTRLFVENDS [R5T] | 1.47 |

Study 3
Target: UBE2Q1 UBC core domain (UniProt Q7Z7E8)
Method: yeast two-hybrid
Medium: yeast
Notes: mostly zero background
Baseline: not given
Reading: higher = stronger interaction
B1: UHRF2 RING domain (UniProt Q96PU4); chain CGGDPEKKCHSCSCRVCGGKHEPNMQLLCDECNVAYHIYCLNPPLDKVPEEEYWYCPSCKTDSSEVVKAGER
B2: CUL9 RING domain (UniProt Q8IWT3); chain AQAVPVRPDHCPVCVSPLGCDDDLPSLCCMHYCCKSCWNEYLTTRIEQNLVLNCTCPIADCPAQPTGAFIR
B3: ARK2C RING domain (UniProt Q6ZSG1); chain EGEESDTDEKCTICLSMLEDGEDVRRLPCMHLFHQLCVDQWLAMSKKCPICRVDIETQLGAD
B4: PHF21A RING domain (UniProt Q96BD5); chain SPTSTDGDIHEDFCSVCRKSGQLLMCDTCSRVYHLDCLDPPLKTIPKGMWICPRCQDQMLKKEEAIPW
B5: RC3H2 RING domain (UniProt Q9HBD1); chain QAAQWTEFLSCPICYNEFDENVHKPISLGCSHTVCKTCLNKLHRKACPFDQTAINTDIDVL
B6: IRF2BPL RING domain (UniProt Q9H1B7); chain SPMANSGPLCCTICHERLEDTHFVQCPSVPSHKFCFPCSRESIKAQGATGEVYCPSGEKCPLVGSNVP
B7: RNF170 RING domain (UniProt Q96K19); chain TRQQFYTDMYCPICLHQASFPVETNCGHLFCGACIIAYWRYGSWLGAISCPICRQTVTLLLTVF
B8: ZNF598 RING domain (UniProt Q86UK7); chain AAAPERGGGSCVLCCGDLEATALGRCDHPVCYRCSTKMRVLCEQRYCAVCREELRQVVFGK
Construct (chain): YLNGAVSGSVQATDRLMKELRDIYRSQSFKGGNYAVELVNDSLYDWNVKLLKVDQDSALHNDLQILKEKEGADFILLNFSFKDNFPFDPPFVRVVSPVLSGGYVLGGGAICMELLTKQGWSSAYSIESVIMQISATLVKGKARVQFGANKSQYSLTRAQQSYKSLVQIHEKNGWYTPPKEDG
| Molecule | lacZ reporter activity |
| --- | --- |
| B1 (UHRF2 RING domain) | 0 |
| KTLSRFGIQPCSICLGDAKDPVCLPCDHVHCLRCLRAWFASEQMICPYCLTALPDEFSPA (RNF213 RING domain (UniProt Q63HN8)) | 0 |
| B2 (CUL9 RING domain) | 0 |
| B3 (ARK2C RING domain) | 0 |
| VTLSLTLPITCHICLGKVRQPVICINNHVFCSICIDLWLKNNSQCPACRVPITPENPCK (OBI1 RING domain (UniProt Q5W0B1)) | 0 |
| B4 (PHF21A RING domain) | 0 |
| B5 (RC3H2 RING domain) | 0 |
| B6 (IRF2BPL RING domain) | 4720 |
| B7 (RNF170 RING domain) | 0 |
| B8 (ZNF598 RING domain) | 0 |
| DDENSDNSNECVVCLSDLRDTLILPCRHLCLCTSCADTLRYQANNCPICRLPFRALLQIR (MGRN1 RING domain (UniProt O60291)) | 0 |
| QHHELTSLFECPVCFDYVLPPILQCQAGHLVCNQCRQKLSCCPTCRGALTPSIRNL (SIAH2 RING domain (UniProt O43255)) | 0 |
| QLRRLQEERTCKVCMDKEVSVVFIPCGHLVVCQECAPSLRKCPICRGIIKGTVRTF (BIRC2 RING domain (UniProt Q13490)) | 0 |
| FASPPDSNFVCSVCHGVLKRPARLPCSHIFCKKCILRWLARQKTCPCCRKEVKRKKVVH (RNF151 RING domain (UniProt Q2KHN1)) | 0 |
| EDEVSDNSAECVVCLSDVRDTLILPCRHLCLCNTCADTLRYQANNCPICRLPFRALLQIR (RNF157 RING domain (UniProt Q96PX1)) | 0 |

Study 4
Target: ABI1, truncated, D143A, DHFR fusion (Arabidopsis thaliana)
Method: DHFR PCA, deep sequencing
Medium: yeast
Notes: methotrexate growth selection, single substitutions
Together with: (+)-ABA 58 µM
Baseline: wild-type fitted maximum
Reading: higher = stronger binding
Starting sequence: PYL1, truncated, DHFR fusion (Arabidopsis thaliana); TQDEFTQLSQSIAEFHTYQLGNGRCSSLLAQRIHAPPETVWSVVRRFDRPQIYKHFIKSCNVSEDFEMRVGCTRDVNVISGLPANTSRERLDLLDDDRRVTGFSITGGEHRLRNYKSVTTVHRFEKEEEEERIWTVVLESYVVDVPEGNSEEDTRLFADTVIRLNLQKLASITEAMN
| Variant | relative binding score |
| --- | --- |
| T154D | -5.99% |
| R45D | -12.5% |
| R46T | 65.9% |
| T39M | 83.1% |
| R113I | 77.8% |
| V121T | 23.5% |
| R46N | 55.8% |
| L29I | 81.9% |
| D144K | 46% |
| F5P | 74.1% |
| P146C | 48.3% |
| F124M | 97.1% |
| D92Y | 31.1% |
| E109K | 83.1% |
| D144S | 57.7% |
| R163D | 29.8% |
| T106F | 94% |
| D3L | 83.4% |

Study 5
Target: Sal-like protein 4, full length isoform B (SALL4, Homo sapiens, UniProt Q9UJQ4-2, residues 1-616)
Method: universal PBM
Molecule type: double-stranded DNA, one strand shown
Medium: in vitro
Concentration: not given
Notes: 8-mer, flanks averaged, mean of replicates
Reading: higher = stronger binding
Residues (chain): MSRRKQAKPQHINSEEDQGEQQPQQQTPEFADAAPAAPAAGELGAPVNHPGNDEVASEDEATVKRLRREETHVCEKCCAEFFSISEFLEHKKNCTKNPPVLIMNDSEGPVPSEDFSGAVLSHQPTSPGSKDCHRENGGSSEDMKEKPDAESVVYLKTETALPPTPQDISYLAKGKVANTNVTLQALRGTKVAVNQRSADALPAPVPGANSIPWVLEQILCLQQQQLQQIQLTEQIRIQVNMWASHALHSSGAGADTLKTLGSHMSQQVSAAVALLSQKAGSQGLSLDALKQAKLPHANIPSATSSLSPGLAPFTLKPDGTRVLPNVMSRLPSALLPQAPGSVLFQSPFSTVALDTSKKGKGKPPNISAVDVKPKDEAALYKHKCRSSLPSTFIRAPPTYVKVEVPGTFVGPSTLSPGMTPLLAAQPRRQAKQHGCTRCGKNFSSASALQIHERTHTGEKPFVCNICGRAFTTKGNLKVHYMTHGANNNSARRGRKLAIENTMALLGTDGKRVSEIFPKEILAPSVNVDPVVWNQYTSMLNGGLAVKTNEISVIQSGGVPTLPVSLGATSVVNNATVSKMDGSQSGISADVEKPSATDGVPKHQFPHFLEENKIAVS
| Oligonucleotide | E-score |
| --- | --- |
| AGGGTGCA | -0.149 |
| AGCGCAGC | -0.2 |
| AATGAAAT | 0.243 |
| GCAGTGTA | 0.073 |
| ATCTGTCC | -0.149 |
| AATGGGGC | -0.272 |
| GTTCGGAA | -0.083 |
| TAATGGCA | 0.138 |
| ATCCGTAA | -0.0384 |
| GCAGGGGC | -0.346 |
| CATTTCCC | -0.0467 |
| CTACGTGA | -0.196 |
| AAATGCTC | 0.0497 |
| AAACACTG | 0.0419 |
| ACATGAAG | 0.163 |
| ATGGATTC | -0.0343 |
| GAGATTTA | 0.128 |
| CGCTCTCA | -0.206 |
| GCGGCGGA | -0.422 |
| AGACATCG | -0.114 |
| AAACCAGG | -0.135 |
| AAAATCAG | 0.0459 |
| ACCGACTC | -0.155 |
| AGATCCAC | 0.0308 |
| CGGGGATA | -0.195 |

Study 6
Target: Histone acetyltransferase KAT6A, winged helix 1, GST fusion (KAT6A, Homo sapiens, UniProt Q92794, residues 1-85)
Method: protein binding microarray
Molecule type: double-stranded DNA, one strand shown
Medium: in vitro
Concentration: not given
Notes: 8-mer, flanks averaged, mean of 2 arrays, mostly near background
Baseline: not given
Reading: higher = stronger binding
Target sequence (chain): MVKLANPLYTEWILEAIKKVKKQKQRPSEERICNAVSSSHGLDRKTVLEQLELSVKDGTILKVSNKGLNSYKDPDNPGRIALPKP
| Oligonucleotide | E-score |
| --- | --- |
| ACGACTAT | -0.0523 |
| CGTCACAA | 0.0452 |
| GAAAAGCA | -0.192 |
| CGGATAAG | 0.143 |
| CCATAAGG | -0.246 |
| CCAAACCC | -0.0439 |
| CCATACAA | -0.204 |
| ATGCGTGC | 0.14 |
| CCGTCTTC | 0.177 |
| AGGGTCAC | -0.0965 |
| TCCACTAA | -0.137 |
| CGCTTCTC | 0.277 |
| CTACTGAG | -0.148 |
| ATACCCCG | 0.205 |
| CTCAGGTA | -0.184 |
| ATGACCGC | 0.328 |
| CCAAATCA | -0.141 |
| CAGCTGCC | 0.065 |
| AGAATGGA | -0.16 |
| GCTTGGTA | -0.0445 |
| GGCCAACA | -0.0758 |
| ATAACTAT | -0.0624 |
| CTTAGGAC | -0.0799 |
| CTTAGTCA | 0.00127 |
| ATTAACGG | 0.101 |
